Published values of several laboratories.
Numbered parts are unrelated; each lists some results of a single study.

Set 1
Target: Sal-like protein 4, full length isoform A (SALL4, Homo sapiens, UniProt Q9UJQ4, residues 1-1053)
Sequence of UniProt Q9UJQ4 (whole entry, looked up): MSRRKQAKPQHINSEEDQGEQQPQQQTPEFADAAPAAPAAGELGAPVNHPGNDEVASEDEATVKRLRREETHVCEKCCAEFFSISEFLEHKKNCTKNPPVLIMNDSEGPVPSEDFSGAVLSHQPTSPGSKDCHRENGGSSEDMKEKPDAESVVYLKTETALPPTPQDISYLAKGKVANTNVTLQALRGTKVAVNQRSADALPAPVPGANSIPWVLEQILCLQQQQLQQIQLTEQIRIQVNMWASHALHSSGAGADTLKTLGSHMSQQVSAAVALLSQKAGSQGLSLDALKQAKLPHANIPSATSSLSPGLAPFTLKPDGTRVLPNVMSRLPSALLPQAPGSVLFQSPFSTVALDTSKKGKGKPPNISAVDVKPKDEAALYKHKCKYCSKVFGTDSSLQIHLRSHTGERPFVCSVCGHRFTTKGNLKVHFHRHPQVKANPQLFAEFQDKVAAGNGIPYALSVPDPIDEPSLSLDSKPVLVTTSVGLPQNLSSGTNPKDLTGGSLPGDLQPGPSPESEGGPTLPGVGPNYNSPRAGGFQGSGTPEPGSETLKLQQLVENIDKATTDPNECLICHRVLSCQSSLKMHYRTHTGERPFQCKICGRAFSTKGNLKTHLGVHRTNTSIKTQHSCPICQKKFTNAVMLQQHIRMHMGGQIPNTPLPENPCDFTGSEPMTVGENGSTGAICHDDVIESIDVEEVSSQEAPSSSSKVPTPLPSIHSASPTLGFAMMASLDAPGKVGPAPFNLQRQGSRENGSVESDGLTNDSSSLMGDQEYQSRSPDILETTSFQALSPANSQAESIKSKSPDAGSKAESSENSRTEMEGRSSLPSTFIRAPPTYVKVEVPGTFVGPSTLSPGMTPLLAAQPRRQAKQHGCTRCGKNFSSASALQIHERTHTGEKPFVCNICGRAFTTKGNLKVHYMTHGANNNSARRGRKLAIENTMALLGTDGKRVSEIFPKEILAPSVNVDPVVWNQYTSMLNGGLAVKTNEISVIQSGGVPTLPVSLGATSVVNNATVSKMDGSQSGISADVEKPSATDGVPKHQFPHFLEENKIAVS
Method: universal PBM
Molecule type: double-stranded DNA, one strand shown
Matrix: in vitro
Tested at: 600 nM
Setting: 8-mer, flanks averaged, mean of replicates
Direction: higher = stronger binding
Quantity: E-score
GCGCTTCC: -0.204
AGTATGTG: 0.128
AAGCAGAT: 0.0414
CTTCTCCC: -0.056
ATAAGCAG: 0.167
ATGAAGCG: -0.13
CTCAAATC: 0.0394
ACCGAGCG: -0.165
CCAAACTC: -0.119
CTAACACA: 0.0851
AACCTCTC: 0.00042
ACTGCAAT: 0.0508
CCGTTCAG: -0.227
TACCCGAA: 0.119
ATACTTCG: 0.225
CCTCAACG: -0.141
ATTAGTAC: 0.22
AGTTCCAA: 0.119
GAACGTTC: -0.186
ATCTCTGG: -0.0415
AGCAAAAA: 0.255
AGGCTGGC: -0.303
CGTGAAAC: -0.0355
AGTGTTCC: -0.00538
ACTTCCAC: -0.181

Set 2
Target: Myc proto-oncogene protein, bHLH-zipper, MAX partner unstated (MYC, Homo sapiens, UniProt P01106, residues 368-449)
Sequence of UniProt P01106 (368-449, looked up): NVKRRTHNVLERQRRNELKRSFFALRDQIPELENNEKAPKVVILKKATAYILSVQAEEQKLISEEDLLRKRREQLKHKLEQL
Method: protein-binding microarray
Molecule type: double-stranded DNA, one strand shown
Matrix: in vitro
Tested at: not given
Setting: k-mer, scored over probes, only values ≥0.25
Direction: higher = stronger binding
Quantity: E-score
GTGGCTCA: 0.287
ATGCGCAC: 0.341
ACCCCACC: 0.321
ATCGCCAC: 0.29
CCCACGCC: 0.391
AGCACGTG: 0.493
CATGTGGA: 0.463
AACACGAT: 0.315
ACGTGCTC: 0.45
ATGGGGTG: 0.312
AGCCCACG: 0.308
AGCCATGC: 0.437
ACGCACGT: 0.408
AGGTGGGG: 0.26
GCACCCAC: 0.335
ACGTGGAT: 0.437
CATGAGTA: 0.254
ATGCGCGC: 0.273

Set 3
Target: Histone acetyltransferase KAT6A, both winged helices, GST fusion (KAT6A, Homo sapiens, UniProt Q92794, residues 1-181)
Method: protein binding microarray
Molecule type: double-stranded DNA, one strand shown
Matrix: in vitro
Tested at: not given
Setting: 8-mer, flanks averaged, mean of 2 arrays, mostly near background
Baseline: not given
Direction: higher = stronger binding
Quantity: E-score
Construct (chain): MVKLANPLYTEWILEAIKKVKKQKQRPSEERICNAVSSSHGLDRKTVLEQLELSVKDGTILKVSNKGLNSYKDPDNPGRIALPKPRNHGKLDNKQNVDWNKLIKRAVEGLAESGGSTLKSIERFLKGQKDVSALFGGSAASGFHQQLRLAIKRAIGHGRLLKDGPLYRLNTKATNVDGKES
ATGACTCC: -0.118
CGACTTAA: -0.0424
CCCTGGTA: -0.206
CATGTTAC: -0.122
ACTGAACG: 0.0894
ACGGTGGA: -0.034
CACCTGAG: -0.155
CCGAGCTA: 0.157
GTTACTGA: 0.109
ATTCAACA: -0.0358
GCGGCTCC: 0.266
CGTATGCA: 0.0726
CGGTTACG: 0.316
CTAAGCGC: 0.295
AGCAGCTC: -0.21
TGACCACA: -0.188
GACCCACA: -0.194
CTTTCTCC: -0.0916
TGCTTAAA: -0.147
CCCCACAA: -0.168
CTGAGACA: -0.237
ATCTAGCG: 0.139
GCCAAAGC: 0.0882
TAGGTTGA: -0.0669
CTATGTAA: -0.116

Set 4
Target: Interferon regulatory factor 7, full length, phosphomimetic (IRF7, Homo sapiens, UniProt Q92985, residues 1-503, S471D/S472D/S475D/S476D/S477D/S483D/S484D/S487D)
Sequence of UniProt Q92985 (whole entry, unmodified, looked up): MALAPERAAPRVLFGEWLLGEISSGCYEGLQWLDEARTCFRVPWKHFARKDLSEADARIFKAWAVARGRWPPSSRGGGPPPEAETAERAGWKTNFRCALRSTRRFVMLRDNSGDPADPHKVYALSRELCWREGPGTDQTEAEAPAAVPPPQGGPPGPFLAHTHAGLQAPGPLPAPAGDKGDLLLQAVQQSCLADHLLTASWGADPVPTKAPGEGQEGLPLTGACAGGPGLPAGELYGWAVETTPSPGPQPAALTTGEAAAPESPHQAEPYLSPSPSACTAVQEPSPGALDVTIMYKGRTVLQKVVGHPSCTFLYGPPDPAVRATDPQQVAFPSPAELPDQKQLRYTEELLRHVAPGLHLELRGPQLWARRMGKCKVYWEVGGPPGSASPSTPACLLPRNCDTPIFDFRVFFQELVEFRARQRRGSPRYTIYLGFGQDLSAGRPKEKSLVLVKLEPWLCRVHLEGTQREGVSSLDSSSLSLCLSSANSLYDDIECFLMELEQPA
Method: protein-binding microarray
Molecule type: double-stranded DNA, one strand shown
Matrix: in vitro
Tested at: 2200 nM top
Setting: 60-bp whole probe
Added: salmon DNA 0.4 mg/ml
Baseline: random background probes
Direction: higher = stronger binding
Quantity: fitted relative affinity
Shared flanks, not repeated: GCCTAGCAC … GTCTTGATTCGCTTGACGCTGCTG
TTAGAACCGAGTCTCGATTAGTGCTAG: 0.317 z-score
TTAGAGTCCAGTTTCGATTAGTGCTAG: 5.78 z-score
TCATCTCTTATTCTAACACTGTGCTAG: 1.61 z-score
GACGGTATCGTTATCGGGACGTGCTAG: 0.247 z-score
TTAGAACTGGTGTTTCGATTAGTGCTA: 2.08 z-score
TTATAACTGGGGTTTCGATTAGTGCTA: 3.07 z-score
TCACCCATGAGTCTCAAACTGTGCTAG: 0.633 z-score
TTAGATGTCGGGACTGGATTAGTGCTA: -0.00558 z-score
GACGATCTCAGTATCGAGAGGTGCTAG: -0.191 z-score
TTAGGTATCGGGAATGGGTTAGTGCTA: -0.238 z-score
TCAGATTTCGGGTATCGATTAGTGCTA: 3.18 z-score
GACGAACTAAGTATCGAGACGTGCTAG: -0.236 z-score
TTAGAAGTGGGGTATCGATTAGTGCTA: 0.0872 z-score
TTAGGTATTGGGACTGGGTTAGTGCTA: -0.363 z-score
GACGGACCGGGGTATCGGGACGTGCTA: -1.02 z-score
TCAAAGATTTTTATCAAACTGTGCTAG: -0.94 z-score
TTGAACTTCGGCCTCTAGGTGTGCTAG: 0.0619 z-score
TTAGATTACAGTATCGATTAGTGCTAG: 0.174 z-score
CATCTTCTGGATTTTTTAGCGTGCTAG: 0.881 z-score
TTAGGTTTCCCTATCCTTTAGTGCTAG: 1.98 z-score
GACGATATCAGACTTGAGACGTGCTAG: -0.103 z-score
TTAGGTTTCTGGACTGGGTTAGTGCTA: 0.799 z-score

Set 5
Target: Ras GTPase-activating protein-binding protein 1, full length (G3BP1, Homo sapiens, UniProt Q13283)
Sequence of UniProt Q13283 (whole entry, looked up): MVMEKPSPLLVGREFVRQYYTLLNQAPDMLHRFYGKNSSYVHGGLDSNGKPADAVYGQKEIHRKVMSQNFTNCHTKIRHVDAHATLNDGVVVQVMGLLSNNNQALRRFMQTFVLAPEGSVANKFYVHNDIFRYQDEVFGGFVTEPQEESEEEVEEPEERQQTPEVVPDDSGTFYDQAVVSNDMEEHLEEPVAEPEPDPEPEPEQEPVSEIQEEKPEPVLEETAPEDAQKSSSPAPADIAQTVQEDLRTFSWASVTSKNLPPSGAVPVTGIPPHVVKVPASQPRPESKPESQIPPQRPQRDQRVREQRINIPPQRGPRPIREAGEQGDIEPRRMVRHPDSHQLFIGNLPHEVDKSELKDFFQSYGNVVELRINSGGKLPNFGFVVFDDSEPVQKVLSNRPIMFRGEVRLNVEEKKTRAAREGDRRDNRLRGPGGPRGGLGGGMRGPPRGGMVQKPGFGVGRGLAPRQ
Method: RNA Bind-n-Seq
Molecule type: RNA
Matrix: in vitro
Tested at: 200 nM
Setting: whole 134-nt RNA, ends assumed
Added: 150 mM KCl
Baseline: input library
Direction: higher = stronger binding
Quantity: log2 enrichment
Shared flanks, not repeated: GGGAGUUCUACAGUCCGACGAUC … UGGAAUUCUCGGGUGUCAAGG
CCUGUGCUACACAUCGUAUGUACCGAAUCGGGGAAAAAAAGGGGUUUUUGGGGAAAGGGGAAAGUAUUAUGUUACGCCGUUCGGAUCUGC: 0.389
GUGCUACACAUCGUAUGUACCGAAUCGGGGAAAAAAAGGGGAAAAAAAGGGGAAAAAAAGGGGAAAGUAUUAUGUUACGCCGUUCGGAUC: -0.313
UCCUCAAGUCCUGUGCUACACAUCGUAUGUACCGAAUCGGUGGUGGGUGGGGAAAGUAUUAUGUUACGCCGUUCGGAUCUGCACUUCCAG: 0.538
CAAGUCCUGUGCUACACAUCGUAUGUACCGAAUCGGUUUGGAAAAAGGAAAAAGGAAAGUAUUAUGUUACGCCGUUCGGAUCUGCACUUC: -0.815
AGUCCUGUGCUACACAUCGUAUGUACCGAAUCGGAAAAAGGGAAAAAGGAAAAAGGGAAAGUAUUAUGUUACGCCGUUCGGAUCUGCACU: -1.18
UCCUGUGCUACACAUCGUAUGUACCGAAUCGGGAAAAAGGGAAAAAGGGGAAAAAGGGGAAAGUAUUAUGUUACGCCGUUCGGAUCUGCA: 0.143
UCCUGUGCUACACAUCGUAUGUACCGAAUCGGGCCCCCGGGGCCCCCGGGGCCCCCGGGGAAAGUAUUAUGUUACGCCGUUCGGAUCUGC: -0.418
ACCAUGCAGGUGGGCAUCUUUGGGAAGUGGGGCAAGGGGGGGAUAGGGAGGGGGGUAACACUUUGGGAACAGGUGGUCCCAGGUUGUUUC: 0.844
CCUCAAGUCCUGUGCUACACAUCGUAUGUACCGAAUCGGAGGAGGGGAGGGGAAAGUAUUAUGUUACGCCGUUCGGAUCUGCACUUCCAG: 0.489
GUCCUGUGCUACACAUCGUAUGUACCGAAUCGGGUUUUUUGGGUUUUUUGGUUUUUUGGAAAGUAUUAUGUUACGCCGUUCGGAUCUGCA: -1.04
CCUGUGCUACACAUCGUAUGUACCGAAUCGGGGAAAGGGGUUUUUGGGGUUUUUUUGGGGAAAGUAUUAUGUUACGCCGUUCGGAUCUGC: 0.19
AAGUCCUGUGCUACACAUCGUAUGUACCGAAUCAAACCCCCAAAUUUAAAUUUAAAAAAGUAUUAUGUUACGCCGUUCGGAUCUGCACUU: -0.0286
CAAGUCCUGUGCUACACAUCGUAUGUACCGAAUCGGGAAAGGGUUUUUGGGAGGGAAAGUAUUAUGUUACGCCGUUCGGAUCUGCACUUC: 0.549
AGUCCUGUGCUACACAUCGUAUGUACCGAAUCAAACCCCCAAAUUUAAAUUUUUAAAAAAGUAUUAUGUUACGCCGUUCGGAUCUGCACU: -0.186

Set 6
Target: Centromere-binding protein 1, full length, N-terminal tag (CBF1, Saccharomyces cerevisiae, UniProt P17106, residues 1-351)
Sequence of UniProt P17106 (whole entry, looked up): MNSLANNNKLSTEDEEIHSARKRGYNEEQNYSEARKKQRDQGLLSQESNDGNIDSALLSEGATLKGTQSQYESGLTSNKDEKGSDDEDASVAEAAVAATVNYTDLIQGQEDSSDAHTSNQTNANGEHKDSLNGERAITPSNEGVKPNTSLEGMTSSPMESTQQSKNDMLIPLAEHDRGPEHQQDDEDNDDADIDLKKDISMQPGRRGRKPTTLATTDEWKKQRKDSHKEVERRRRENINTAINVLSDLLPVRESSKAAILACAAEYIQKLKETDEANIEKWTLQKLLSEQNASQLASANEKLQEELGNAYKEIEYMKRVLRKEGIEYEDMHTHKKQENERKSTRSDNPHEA
Method: protein-binding microarray
Molecule type: double-stranded DNA, one strand shown
Matrix: in vitro
Tested at: 0.8 µM
Setting: whole 60-bp probe, no competitor
Direction: higher = stronger binding
Quantity: fluorescence intensity
Shared flanks, not repeated: … GTCTTGATTCGCTTGACGCTGCTG
GAAGCCACACATTTTCGCCTGATCTCTAGCCGCTAG: 509 a.u.
CTATCATGATTACCCAACGTGCCGTTACAAATGTTC: 610 a.u.
CTAGGCCATCTTCGCCATCAGAGAGACCGTACCTTC: 520 a.u.
CTATTTTTAAATCGTGACATGTGCTTTAATAGATTC: 2340 a.u.
CTAGTAACCCACTTTAACGTGACTGGACCTGAGTTC: 824 a.u.
CTAATTGAGTGCAAAGATCTGATGCATCCCATTTTC: 497 a.u.
CTATGGCATCAACGTGATTTTTGGAAGAAAGAATTC: 1410 a.u.
GAACATTAAACAATAAACGTGGGTGATGAAGACTAG: 595 a.u.
CTATGACTCTTCTACAACGTGAATGCCTTTGATTTC: 646 a.u.
GAAAATAAGTAGTCTTACGTGATAAGAAATGATTAG: 569 a.u.
GAACCTGCCTCCCGTCATGCCAAGAGCCGTACTTAG: 513 a.u.
GAATCCATAATGTCCCTCATGACCCATCTCTGCTAG: 629 a.u.
CCTAACTACTATAAGCACGTGCTATAGCTTCGTACA: 15000 a.u.
CCTAACTACTATACACTGGTGATATAGCTTCGTACA: 517 a.u.
CTACTAAACGGTTGTCAGGAGAAAAATTGAATGTTC: 551 a.u.
GAACTAAACCGATATCACGCTAGTATTTATTTCTAG: 654 a.u.
CTACGCCCGAGGTCACCCGCCACGGAGAGGGGCTTC: 541 a.u.
TGTACGAAGCTATCACCCGTGTATATAGTAGTTAGG: 545 a.u.
GAAAAAAAACTATGAAACGTCACGAAAAAATGATAG: 591 a.u.
GAATATATCTCGAGTCACCTTCAAAAATCAAACTAG: 558 a.u.
GAAGAGTGACCTGAGCAGGTGACTTAGGTGGAGTAG: 2300 a.u.
GAATATGCGAAGCCTGATGTGAAGAAAAGAATTTAG: 541 a.u.
CTATGCCCTTATTCGCACGTGCCATAACACCTGTTC: 10300 a.u.
CTAACTCTGTAATAGCTGACGATTCTTCAGTGATTC: 468 a.u.
CTATAGGCTAAACGGCACATGTTAACTTTTTTCTTC: 871 a.u.
